Experimental data gathered from unrelated publications.
Lines come from different studies, so protocols differ. ± gives the spread as reported.
IDE: Insulin-degrading enzyme (IDE, Homo sapiens, UniProt P14735)

Compound | tested on | assay | system | conditions | scale | quantity | result
CC(C)n1c(Nc2cccnc2)nc2cnc(Nc3ccc(N4CCN(C)CC4)cc3)nc21 |  | refers to: platelet count decreased | healthy human, male | oral, dose not given, CTCAE grade 1-3 |  | subjects with TEAE | 2.4%
CNC(=O)c1ccc(-c2cnc3ncc(Cc4ccc5ncccc5c4)n3n2)cc1F |  |  | Japanese patients | oral, 400 mg, grade 3/4 |  | γGT increased patients | 1%
NC(=O)c1cccnc1 | HBL-1 |  |  | 1 µM, 120 h |  | viability | 100%
CCCOc1ccc(NC(=O)CN2CCN(C)CC2)cc1-c1nc(CC)c(CC)c(=O)[nH]1 |  |  | healthy Chinese men | 10 mg, added: placebo alcohol |  | head discomfort incidence | 26.7%
CC(C)(C(=O)N1CCOc2c(C#N)cncc2C1)C(F)F |  | refers to: blood creatine phosphokinase increased | healthy humans, both sexes | oral, 30 mg single dose |  | subjects with TEAE | 0%
Cc1cccc(CNC(=O)c2cn(CCNC(=O)c3ccccc3Sc3c([N+](=O)[O-])ncn3C)c3cc4c(cc3c2=O)OC(F)(F)O4)n1 |  |  | Sprague-Dawley rat, male, whole blood | intramuscular, 30 mg/kg of parent drug |  | bioavailability | 34.2 ± 20.6%
Cc1cc(C)c(CNC(=O)c2cc(Cl)c3c(c2C)O[C@@](C)([C@H]2CC[C@H](N(C)C)CC2)O3)c(=O)[nH]1 |  |  | human, plasma | oral, 200 mg, cycle 1 day 15 |  | half-life unbound drug | 10.2 h
Cc1cc2nc(-c3ccc(C(=O)NC4CCN(Cc5ccccc5)CC4)s3)[nH]c2cc1C | Plasmodium yoelii |  | 17XL | 384-well |  | IC50 | > 20 µM
Cc1ccc([C@@H]2O[C@H](CO)[C@@H](O)[C@H](O)[C@H]2O)cc1Cc1ccc(-c2ccc(F)cc2)s1 |  | refers to: inorganic phosphorus | Japanese type 2 diabetes patients | 400 mg, day 3, 24 h urine collection | reference: baseline | urinary phosphate excretion change | 202 mg
Cc1ccc(S(=O)(=O)N2CCCN(C(=O)c3cc(-c4ccccc4)n[nH]3)CC2)cc1 | Plasmodium yoelii |  | 17XL | 384-well |  | IC50 | 0.71 ± 0.231 µM
CC(C)C(=O)O[C@H]1[C@H](C)OC(=O)[C@@H]1Cc1ccccc1 |  |  | Swiss Lake sand sediment, aerobic dark | 20 °C |  | DT50 water | 2.02 days
O=C1CCc2c(ccc3ccccc23)O1 | HBL-1 |  |  | 0.1 µM, 120 h |  | viability | 113%
O=C(N[C@H](Cc1c[nH]c2ccccc12)C(=O)Nc1ccncc1)c1ccc(-c2cc(C(F)(F)F)ccc2F)cc1F |  |  | Swiss Webster mouse, female, fat | oral, 50 mg/kg, 2 h, 20% HPβCD vehicle |  | concentration | 170 nM
COc1ccc2c3c([nH]c2c1)[C@H](CC(C)C)N1C(=O)[C@H](CC(=O)NC(C)C)NC(=O)[C@@H]1C3 |  |  | wild-type mouse | oral, 100 mg/kg, 23 days |  | liver histology | no effect
Cc1nc(-c2ccc(OCC(C)C)c(C#N)c2)sc1C(=O)O |  |  | healthy Chinese subjects, fasted | oral, 40 mg single dose |  | subjects with decreased appetite | 2.6%
CCCCCN(C)CCC(O)(P(=O)(O)O)P(=O)(O)OP(=O)(O)OC[C@H]1O[C@@H](n2ccc(N)nc2=O)C(F)(F)[C@@H]1O (stereo partly drawn) |  |  | buffer | concentration not given, pH 2.7, 22 °C |  | hydrolysis half-life | 27.7 h
Cc1ccccc1-c1ccc([C@H]2[C@@H](CO)N3CCCCN(S(C)(=O)=O)C[C@@H]23)cc1 | IDE | enzyme activity, inhibitor, fluorogenic kinetic |  | added: Mca-RPPGFSAFK(Dnp)-OH substrate |  | EC50 | > 100 µM
C=CC(=O)Nc1cc(Nc2nccc(-c3cn(C)c4ccccc34)n2)c(OC)cc1N(C)CCN(C)C |  | storage stability | human plasma samples | 30 d, -80 °C, LLOQ level | reference: nominal concentration | percentage recovery | 14.4%
CNCc1ccc(-c2[nH]c3cc(F)cc4c3c2CCNC4=O)cc1 |  |  | patients | oral, 600 mg twice daily, all grades |  | any adverse event incidence | 100%
O.O.O.O.O.O.[Co+2] |  | differential pulse voltammetry |  | aqua ion | reference: NHE | peak potential | 1.82 V
NC[C@@]1(CC(=O)O)[C@@H]2CC[C@H]3C[C@@H]2[C@@H]1C3 |  |  | human, mild renal impairment, urine | oral, 20 mg single dose |  | cumulative amount excreted | 14.5 ± 2.71 mg
Cc1ccc2nc(-c3ccccn3)c(CN(CC(C)C)c3cccc(C(F)(F)F)c3)n2c1 |  |  | peritoneal macrophages, Swiss mice | 5 days, 5% fetal calf serum |  | CC50 | 31.6 µM
Cc1cccc(-c2ccc([C@@H]3[C@@H](CO)N4CCCCN(CCC(F)(F)F)C[C@@H]34)cc2)c1 | IDE | enzyme activity, inhibitor, fluorogenic kinetic |  | added: Mca-RPPGFSAFK(Dnp)-OH substrate |  | EC50 | 71.5 µM
Cc1ccc2c(c1)C(=O)[C@]1(O)CCN(c3ccc4nc(C)ccc4c3)C1=N2.Cl |  |  | mouse | subcutaneous, 5 mg/kg, 10 min (brain Tmax) | reference: brain over plasma | tissue/plasma ratio | 2

A few entries again:
Compound | tested on | assay | system | conditions | scale | quantity | result
C=CC(=O)Nc1cc(Nc2nccc(-c3cn(C)c4ccccc34)n2)c(OC)cc1N(C)CCN(C)C |  | storage stability | human plasma samples | 30 d, -80 °C, LLOQ level | reference: nominal concentration | percentage recovery | 14.4%
